Experimental data from different studies.
Compare with care: the assays were run in different laboratories.

Structure (SMILES)	assay	test system	conditions	scale	endpoint	result
CN(CCCNC(=O)c1cccc(C(=O)O)c1)CCCNC(=O)c1cc(NC(=O)c2cc(NC(=O)c3cc(NC(=O)c4cc(NC(=O)[C@H](N)CCNC(=O)c5cc(NC(=O)c6cc(NC(=O)c7nc(NC(=O)c8nccn8C)cn7C)cn6C)cn5C)cn4C)cn3C)cn2C)cn1C	HPLC	C57BL/6 mice, plasma	intraperitoneal, 120 nmol/animal, 24 h		plasma concentration	not detected
COc1ccc(OC)c(/C(=C\c2ccc(O)c(O)c2)C(=O)NCCc2ccc(O)cc2)c1		C57BL mice, pseudo-germ-free and MPTP/p, plasma	oral, 75 mg/kg of FLZ, 8 weeks	baseline: non-antibiotic control mice	plasma concentration	decreased
Cn1cc2cc1C(=O)NC[C@H](N)CC(=O)Nc1cc(n(C)c1)C(=O)Nc1cc(n(C)c1)C(=O)Nc1cc(n(C)c1)C(=O)Nc1cc(n(C)c1)C(=O)NC[C@H](N)CC(=O)Nc1cn(C)c(n1)C(=O)Nc1cn(C)c(n1)C(=O)Nc1cc(n(C)c1)C(=O)N2	HPLC	C57BL/6 mice, pooled plasma	intraperitoneal, 120 nmol/animal, 1.5 h		plasma concentration	~700 nM
CCN(CC)c1ccc(/C=N/NC(=O)c2cc(Cl)cc(Cl)c2)c(O)c1		BALB/c mice, female, plasma	intraperitoneal, 50 nmol, cassette dosing		plasma half-life	10.6 h
N#Cc1cnc2cc(OCC3CCNCC3)c(F)cc2c1Nc1cc(F)c(OCc2cccc(Cl)n2)cc1Cl		C57BL/6J mice, diet-induced MASH, partial hepatectomy	dose not given, 2 h after hepatectomy	baseline: vehicle	plasma glucose	no effect
CC(C)CCN(c1nc(C#N)nc(NC2COC2)n1)C(C)c1ccc(F)cc1 (centres unmarked)		female CD-1 mice	intraperitoneal, 10 mg/kg, 0.5 h		plasma concentration	1530 ng/mL
COc1ccc(OC)c(C(=Cc2ccc(O)c(OC)c2)C(=O)NCCc2ccc(O)cc2)c1		C57BL mice, pseudo-germ-free and MPTP/p, plasma	oral, 75 mg/kg, 8 weeks	baseline: non-antibiotic control mice	plasma concentration	decreased
CC(C)CCN(Cc1ccc(F)cc1)c1nc(C#N)nc(N2CCOCC2)n1		female CD-1 mice	intraperitoneal, 10 mg/kg, 0.5 h		plasma concentration	141 ng/mL
CSc1cc(C)[nH]c(=O)c1CN1CCc2c(Cl)c3c(c(C)c2C1=O)OC(C)(C1CCC(N(C)C)CC1)O3 (centres unmarked)		female CB-17 SCID mice, plasma	oral, 25 mg/kg once daily, 10 h post dose		plasma concentration	12 ng/mL
N#Cc1nc(N2CCOCC2)nc(N(Cc2ccc(F)cc2)CC2CCCNC2)n1 (centres unmarked)		female CD-1 mice	intraperitoneal, 10 mg/kg, 7 h		plasma concentration	14.3 ng/mL
COc1cc2c(cc1OC)CC(=O)N(C[C@H]1CCCN(CCOc3ccc(F)cc3)C1)CC2		C57BL/6 mice, plasma	intraperitoneal, 20 mg/kg, 15 min	baseline: compound over cilobradine	plasma concentration ratio	< 1
